Published values collected from several papers.
Organism: Escherichia coli

`CCCCCCCC(=O)N[C@@H](CCN)C(=O)N[C@H](C(=O)N[C@@H](CCN)C(=O)N[C@H]1CCNC(=O)[C@H]([C@@H](C)O)NC(=O)[C@H](CCN)NC(=O)[C@H](CCN)NC(=O)[C@H](CC(C)C)NC(=O)[C@@H](Cc2ccccc2)NC(=O)[C@H](CCN)NC1=O)[C@@H](C)O` has an MIC of 2 mg/L (broth microdilution; mcr-1, colistin-resistant).
The MIC of `Cc1ccc2nc(C)c(C(=O)NCc3ccccc3)n2c1` is reported as > 128 µM (microbial growth, broth dilution).
`CC(=O)N[C@@H](CC(C)C)C(=O)N[C@H]1CSSC[C@@H](C(=O)N2CCC[C@H]2C(N)=O)NC(=O)[C@H]([C@@H](C)O)NC(=O)[C@H](C(C)C)NC(=O)[C@H]([C@@H](C)O)NC(=O)[C@H](CCCCN)NC(=O)[C@H](CC(C)C)NC(=O)[C@H](Cc2ccccc2)NC(=O)[C@H](Cc2ccc(O)cc2)NC(=O)[C@H](CC(C)C)NC(=O)[C@H](CCCCN)NC(=O)[C@H](Cc2ccccc2)NC(=O)[C@H](CCCNC(=N)N)NC(=O)[C@H](CCC(N)=O)NC(=O)[C@H](CC(C)C)NC(=O)[C@H](CCCCN)NC(=O)[C@@H]2CCCN2C(=O)[C@H](CCCCN)NC(=O)[C@H](C(C)C)NC(=O)[C@H](CC(N)=O)NC(=O)[C@H](Cc2ccc(O)cc2)NC(=O)[C@H]([C@@H](C)O)NC1=O` gave an MIC of 2.5 to 5 µM (broth dilution; laboratory strain; 24 h).
`CCCC[C@H](NC(=O)[C@H](Cc1ccc(O)cc1)NC(=O)[C@@H]1CCCN1C(=O)[C@@H]1CCCN1C(=O)[C@H](CCCCN)NC(=O)[C@H](CC(=O)O)NC(=O)[C@@H](N)C(C)C)C(=O)N1CCC[C@H]1C(=O)N[C@@H](CCCNC(=N)N)C(=O)N1CCC[C@H]1C(=O)N[C@@H](CCCNC(=N)N)C(=O)N1CCC[C@H]1C(=O)N1CCC[C@H]1C(=O)N[C@@H](CCCNC(=N)N)C(=O)N[C@H](CCCNC(=N)N)C(=O)N[C@H](C(=O)N[C@@H](Cc1ccc(O)cc1)C(=O)N[C@@H](CC(N)=O)C(=O)N[C@H](CCCNC(=N)N)C(N)=O)[C@@H](C)CC` has an MIC of 8 mg/L (broth microdilution; MC4100; 18 h, 37 °C, 25% MHB2).
For `c1ccc(CCNC2CCCc3c2[nH]c2ccc(C4CCCCC4)cc32)cc1` (stereo not shown), the MIC was > 128 mg/L (broth microdilution; O-19592).
The MIC of `CC[C@H](C)[C@H](NC(=O)[C@@H](CCCNC(=N)N)NC(=O)[C@H](CCCNC(=N)N)NC(=O)CNC(=O)[C@H](Cc1c[nH]c2ccccc12)NC(=O)[C@H](CCCNC(=N)N)NC(=O)[C@@H]1CCCN1C(=O)[C@H](CCCNC(=N)N)NC(=O)[C@@H]1CCCN1C(=O)[C@H](CC(C)C)NC(=O)[C@H](Cc1ccc(O)cc1)NC(=O)[C@@H]1CCCN1C(=O)[C@@H]1CCCN1C(=O)[C@H](CCCCN)NC(=O)[C@H](CC(=O)O)NC(=O)[C@@H](N)C(C)C)C(=O)N[C@@H](Cc1ccc(O)cc1)C(=O)N[C@@H](CC(N)=O)C(=O)N[C@H](CCCNC(=N)N)C(N)=O` is reported as 4 mg/L (broth microdilution; BW25113; 18 h, 37 °C, 25% MHB2).
`CC1(C)C(NC(=O)C(=NOCC(=O)N2CC3CCCC3C2C(=O)O)c2csc(N)n2)C(=O)N1OS(=O)(=O)O` (stereo not shown) gave an MIC of 8 mg/L (agar dilution; 08-85, mcr-1).
With `CC(C)[C@H](NC(=O)[C@H](Cc1ccc(O)cc1)NC(=O)[C@H](CS)NC(=O)[C@@H](NC(=O)[C@H](CCCNC(=N)N)NC(=O)[C@H](Cc1ccccc1)NC(=O)[C@H](CS)NC(=O)[C@H](Cc1c[nH]c2ccccc12)NC(=O)[C@@H](N)CCCNC(=N)N)C(C)C)C(=O)NCC(=O)N[C@@H](Cc1ccccc1)C(=O)N[C@@H](CS)C(=O)N[C@@H](Cc1ccc(O)cc1)C(=O)N[C@@H](Cc1c[nH]c2ccccc12)C(=O)N[C@@H](CCCCN)C(=O)N[C@@H](CS)C(=O)N[C@@H](CCCNC(=N)N)C(=O)O` the MIC was 4.39 mg/L (broth microdilution; K88, Mueller-Hinton broth; 37 °C).
The MIC of `CC[C@H](C)[C@H](NC(=O)[C@@H](CCCNC(=N)N)NC(=O)[C@H](CCCNC(=N)N)NC(=O)[C@@H]1CCCN1C(=O)[C@@H]1CCCN1C(=O)[C@H](CCCNC(=N)N)NC(=O)[C@@H]1CCCN1C(=O)[C@H](CCCNC(=N)N)NC(=O)[C@@H]1CCCN1C(=O)[C@H](CC(C)C)NC(=O)[C@H](Cc1cc(I)c(O)c(I)c1)NC(=O)[C@@H]1CCCN1C(=O)[C@@H]1CCCN1C(=O)[C@H](CCCCN)NC(=O)[C@H](CC(=O)O)NC(=O)[C@@H](N)C(C)C)C(=O)N[C@@H](Cc1ccc(O)cc1)C(=O)N[C@@H](CC(N)=O)C(=O)N[C@H](CCCNC(=N)N)C(N)=O` is reported as 64 mg/L (broth microdilution; MC4100; 18 h, 37 °C, 25% MHB2).
The MIC of `CC(C)C[C@@H](NC(=O)[C@@H](CCCNC(=N)N)NC(=O)[C@H](N)CCCNC(=N)N)C(=O)N[C@H](CC(C)C)C(=O)N[C@H](CCCNC(=N)N)C(=O)N[C@H](CCCCN)C(=O)N[C@H](CC(C)C)C(=O)N[C@H](CCCCN)C(=O)NCC(=O)N[C@H](CCCCN)C(=O)N[C@H](CCCCN)C(=O)N[C@H](CC(C)C)C(=O)N[C@H](Cc1ccc(O)cc1)C(=O)N[C@H](CC(C)C)C(=O)N[C@H](Cc1ccc(O)cc1)C(=O)N[C@H](Cc1ccccc1)C(=O)N[C@H](CCCCN)C(=O)N[C@H](CC(C)C)C(=O)N[C@H](CCC(N)=O)C(=O)N[C@H](CC(C)C)C(=O)N[C@H](CC(C)C)C(=O)N[C@H](CCCCN)C(=O)N[C@H](CCCCN)C(N)=O` is reported as 16 µM (KCTC 1682, Mueller-Hinton broth; together with: 2.5 mM CaCl2).
The MIC of `C#CCOc1ccc(CN[C@@]2(C)C[C@H](O[C@H]3[C@H](Oc4c5cc6cc4Oc4ccc(cc4Cl)[C@@H](O)[C@@H](NC(=O)[C@@H](CC(C)C)NC)C(=O)N[C@@H](CC(N)=O)C(=O)N[C@H]6C(=O)N[C@H]4C(=O)N[C@H](C(=O)N[C@H](C(=O)O)c6cc(O)cc(O)c6-c6cc4ccc6O)[C@H](O)c4ccc(c(Cl)c4)O5)O[C@H](CO)[C@@H](O)[C@@H]3O)O[C@@H](C)[C@H]2O)cc1OC` is reported as > 128 mg/L (broth microdilution; ATCC 35218, cation-adjusted Mueller-Hinton broth; 18 to 20 h, 37 °C, 0.002% polysorbate 80).
The MIC of `CC[C@H](C)[C@H](NC(=O)[C@@H](CCCNC(=N)N)NC(=O)[C@H](CCCNC(=N)N)NC(=O)[C@@H]1CCCN1C(=O)[C@@H]1CCCN1C(=O)[C@H](CCCNC(=N)N)NC(=O)[C@@H]1CCCN1C(=O)[C@H](CCCNC(=N)N)NC(=O)[C@@H]1CCCN1C(=O)[C@H](CC(C)C)NC(=O)[C@H](Cc1ccc(O)cc1)NC(=O)[C@H](CCCNC(=N)N)NC(=O)[C@@H]1CCCN1C(=O)[C@H](CCCCN)NC(=O)[C@H](CC(=O)O)NC(=O)[C@@H](N)C(C)C)C(=O)N[C@@H](Cc1ccc(O)cc1)C(=O)N[C@@H](CC(N)=O)C(=O)N[C@H](CCCNC(=N)N)C(N)=O` is reported as 8 mg/L (broth microdilution; MC4100; 18 h, 37 °C, 25% MHB2).
The MIC of `COc1c(NC(=O)c2ccc(NC(=O)c3ccc(NC(=O)[C@H](CC#N)NC(=O)c4ccc(NC(=O)/C(C)=C/c5ccc(O)cc5)cc4)cc3)c(OC)c2O)ccc(C(=O)O)c1O` is reported as 0.06 mg/L (K12 ΔtolC).
`CC1(C)[C@H](NC(=O)/C(=N\OC2(C(=O)O)CC2)c2nsc(N)n2)C(=O)N1OS(=O)(=O)O` has an MIC of 4 mg/L (agar dilution; 08-85, mcr-1).
With `CC[C@H](C)[C@H](NC(=O)[C@@H](CCCNC(=N)N)NC(=O)[C@H](CCCNC(=N)N)NC(=O)[C@@H]1CCCN1C(=O)[C@@H]1CCCN1C(=O)[C@H](CCCCNC(=N)N)NC(=O)[C@@H]1CCCN1C(=O)[C@H](CCCNC(=N)N)NC(=O)[C@@H]1CCCN1C(=O)[C@H](CC(C)C)NC(=O)[C@H](Cc1ccc(O)cc1)NC(=O)[C@@H]1CCCN1C(=O)[C@@H]1CCCN1C(=O)[C@H](CCCCN)NC(=O)[C@H](CC(=O)O)NC(=O)[C@@H](N)C(C)C)C(=O)N[C@@H](Cc1ccc(O)cc1)C(=O)N[C@@H](CC(N)=O)C(=O)N[C@H](CCCNC(=N)N)C(N)=O` the MIC was 4 mg/L (broth microdilution; MC4100; 18 h, 37 °C, 25% MHB2).
`CC[C@H](C)[C@H](NC(=O)[C@H](CCCCN)NC(=O)[C@@H](NC(=O)[C@@H](NC(=O)[C@H](CC(C)C)NC(=O)[C@H](CCCNC(=N)N)NC(=O)[C@@H](NC(=O)[C@H](CC(C)C)NC(=O)[C@H](CCCNC(=N)N)NC(=O)CNC(=O)[C@H](Cc1ccccc1)NC(=O)[C@@H](N)CCCNC(=N)N)[C@@H](C)CC)[C@@H](C)CC)C(C)C)C(=O)N[C@@H](C)C(=O)N[C@@H](CCCNC(=N)N)C(=O)N[C@@H](CCCNC(=N)N)C(=O)N[C@@H](C)C(=O)N[C@@H](Cc1c[nH]cn1)C(=O)N[C@@H](CCCNC(=N)N)C(=O)N[C@@H](C)C(=O)N[C@@H](CCCNC(=N)N)C(=O)N[C@@H](CO)C(=O)N[C@@H](C)C(=O)N[C@H](C(=O)N[C@@H](CCCCN)C(=O)N[C@@H](C)C(=O)N[C@@H](C)C(=O)N[C@@H](CO)C(=O)N[C@@H](CC(N)=O)C(=O)N[C@H](C(=O)N[C@@H](C)C(=O)N[C@@H](C)C(=O)N[C@@H](CC(C)C)C(=O)N[C@@H](C)C(=O)N[C@@H](Cc1c[nH]cn1)C(=O)NCC(=O)N[C@@H](C)C(=O)O)C(C)C)C(C)C` gave an MIC of ≤ 0.064 µM (bacterial growth, broth microdilution; cation-adjusted Mueller Hinton broth; 18 h, 37 °C).

Excerpt of the above:
The MIC of `CC[C@H](C)[C@H](NC(=O)[C@@H](CCCNC(=N)N)NC(=O)[C@H](CCCNC(=N)N)NC(=O)[C@@H]1CCCN1C(=O)[C@@H]1CCCN1C(=O)[C@H](CCCNC(=N)N)NC(=O)[C@@H]1CCCN1C(=O)[C@H](CCCNC(=N)N)NC(=O)[C@@H]1CCCN1C(=O)[C@H](CC(C)C)NC(=O)[C@H](Cc1ccc(O)cc1)NC(=O)[C@H](CCCNC(=N)N)NC(=O)[C@@H]1CCCN1C(=O)[C@H](CCCCN)NC(=O)[C@H](CC(=O)O)NC(=O)[C@@H](N)C(C)C)C(=O)N[C@@H](Cc1ccc(O)cc1)C(=O)N[C@@H](CC(N)=O)C(=O)N[C@H](CCCNC(=N)N)C(N)=O` is reported as 8 mg/L (broth microdilution; MC4100; 18 h, 37 °C, 25% MHB2).
